Published values gathered from unrelated publications.
Numbered parts are unrelated; each lists some results of a single study. Changes are numbered by the printed parent chain.

Sample 1 — technique: DHFR PCA, deep sequencing; sample: yeast; with: (+)-ABA 0.11 µM; relative to: wild-type fitted maximum; reading: higher = stronger binding
Target: ABI1, truncated, D143A, DHFR fusion (Arabidopsis thaliana)
Setting: methotrexate growth selection, single substitutions
Parent: PYL1, truncated, DHFR fusion (Arabidopsis thaliana); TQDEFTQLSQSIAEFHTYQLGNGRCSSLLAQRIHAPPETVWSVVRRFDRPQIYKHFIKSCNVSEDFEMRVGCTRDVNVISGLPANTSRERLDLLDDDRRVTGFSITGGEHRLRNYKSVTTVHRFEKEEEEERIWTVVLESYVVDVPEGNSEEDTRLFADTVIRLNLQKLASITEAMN
| Substitution | relative binding score [%] |
| --- | --- |
| E109V | 1.17 |
| K168Q | 20.4 |
| L29S | 0.724 |
| L169D | -0.618 |
| I33W | -1.42 |
| T86V | 44.9 |
| I12F | 0.591 |
| Q7H | 32.9 |
| F15K | -1.06 |
| Y18M | -3.43 |

Sample 2 — target: CCNA2, cyclin fold, Cln2 fusion (human); technique: yeast growth competition, sequencing; sample: yeast; setting: strong parent motif; relative to: not given; reading: higher = stronger binding
Parent: TICRR docking peptide (human); TKVRRNLFNQELL; partner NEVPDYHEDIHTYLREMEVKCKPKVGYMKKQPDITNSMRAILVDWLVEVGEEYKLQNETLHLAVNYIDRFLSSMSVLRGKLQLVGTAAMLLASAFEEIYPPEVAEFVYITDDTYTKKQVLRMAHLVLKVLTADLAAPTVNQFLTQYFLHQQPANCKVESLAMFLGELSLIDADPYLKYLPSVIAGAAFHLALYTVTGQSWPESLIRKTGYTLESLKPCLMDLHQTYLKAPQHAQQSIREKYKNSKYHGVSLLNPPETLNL
| Substitution | normalised enrichment score |
| --- | --- |
| L7A | 1.25 |
| R5K | 3.74 |
| T1A | 3.85 |
| F8A | 0.812 |
| K2A | 3.96 |
| R5K F8L | 0.401 |
| L12A | 4.74 |
| E11A | 4.68 |

Sample 3 — technique: protein-binding microarray; form: double-stranded DNA, one strand shown; sample: in vitro; tested at: not given; reading: higher = stronger binding
Target: Protein C-ets-1 (ETS1, Homo sapiens, UniProt P14921, residues 1-441, full length assumed)
Setting: k-mer, scored over probes, only values ≥0.25
Construct (chain): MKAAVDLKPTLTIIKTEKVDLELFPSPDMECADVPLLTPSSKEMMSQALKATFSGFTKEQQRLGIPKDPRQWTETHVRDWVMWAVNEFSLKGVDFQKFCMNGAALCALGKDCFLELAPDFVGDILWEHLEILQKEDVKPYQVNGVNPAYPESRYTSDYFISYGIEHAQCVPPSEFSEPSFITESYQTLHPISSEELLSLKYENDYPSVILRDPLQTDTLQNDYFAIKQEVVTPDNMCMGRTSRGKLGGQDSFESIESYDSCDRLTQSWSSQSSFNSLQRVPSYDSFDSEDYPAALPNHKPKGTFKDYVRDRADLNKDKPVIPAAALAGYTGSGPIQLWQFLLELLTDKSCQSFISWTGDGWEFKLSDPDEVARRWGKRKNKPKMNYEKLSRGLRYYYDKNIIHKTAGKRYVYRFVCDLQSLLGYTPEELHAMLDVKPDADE
| Sequence | E-score |
| --- | --- |
| GTTCCGCA | 0.281 |
| AAGTTTCC | 0.352 |
| TAAAGGAA | 0.363 |
| GAACATCC | 0.435 |
| AAGGATAT | 0.259 |
| GCACATCC | 0.382 |
| GCTCCGGA | 0.332 |
| GAACAGGA | 0.333 |
| AAGGATGT | 0.402 |
| ACTGCCGG | 0.278 |

Other studies, line by line
| Molecule | target | assay | test system | setting | how to read | quantity | result |
| --- | --- | --- | --- | --- | --- | --- | --- |
| PhoQ, residues 284 288 289 292 302 303 TNASYF | PhoP, residues 12 14 15 18 19 LHHSG (Escherichia coli, UniProt P23836) | Sort-seq, item: YFP reporter | E. coli | PhoQ-PhoP variant library, with: 10 µM Mg2+ | relative to: high Mg2+ state, higher = stronger signaling | fold induction | 7.09 |
